Assay results from different studies.
Numbered parts are unrelated; each lists some results of a single study.

Block 1 — cell line: yeast with cyclin D1-Cln2 chimera; read-out: cell growth; action: binder; method: competitive growth deep sequencing; molecule type: peptide; tested at: concentration not given; setting: peptide tiling library; reading: direction not given; quantity: growth enrichment score
DKYDEGLYRFNSLNDL: 1.48
DVSERGYVILPNDYFE: 1.06
ESSTVSEEDYFSSHRD: 1.13
QYQVVDDIVSKLVFDF: 0.318
KPKPVKPVTFSTGIKM: 1.05
VEEEFFALRKRTPSAG: 1.16
EAAPPTQEAQGETEPT: 0.163
ARKRLELGNLGNPQ: -0.64
RDLFDCDFGDLTPLDF: 1.03
GLPDFVFQQQPVESEA: 1.01
KPHVSDEEEEEPPFYH: 1.01

Block 2 — method: protein binding microarray; molecule type: double-stranded DNA, one strand shown; sample: in vitro; tested at: not given; relative to: not given; reading: higher = stronger binding; quantity: E-score
Target: Histone acetyltransferase KAT6A, both winged helices, GST fusion (KAT6A, Homo sapiens, UniProt Q92794, residues 1-181)
Setting: 8-mer, flanks averaged, mean of 2 arrays, mostly near background
Construct (chain): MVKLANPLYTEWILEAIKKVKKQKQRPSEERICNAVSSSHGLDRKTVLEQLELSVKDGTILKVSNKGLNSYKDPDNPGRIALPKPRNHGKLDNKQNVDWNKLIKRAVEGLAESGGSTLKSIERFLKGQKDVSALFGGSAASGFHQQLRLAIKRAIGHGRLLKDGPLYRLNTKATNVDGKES
CTTGTTAC: -0.0483
AAACTTAG: -0.161
GGTTGTGA: -0.0492
GATAGGTA: -0.0646
CGCATCCC: 0.116
GGGCGATA: 0.12
CACAGGTG: -0.0945
CTTCGAAC: -0.055
AGTAAGCC: 0.00494
ACGCATAG: 0.133
GCTACTCC: -0.0198
AATCACAC: -0.107
GCTCGGCC: 0.217
ATCGAGGG: -0.109
ATAGGCTA: -0.127
GAGCTCTA: -0.0279
CCCAATGA: -0.242
ACATTTCC: 0.0238
CGAATAGA: -0.0849
CACATGCG: 0.182
AATCTTCG: 0.0375
CAAGCGAG: 0.0296

Block 3 — method: RNA Bind-n-Seq; molecule type: RNA; sample: in vitro; tested at: 20 nM; setting: 6-mer, flanks averaged, single round; added: 150 mM KCl; relative to: input library; reading: higher = stronger binding; quantity: 6-mer enrichment (R)
Target: TAR DNA-binding protein 43, full length, His tag (TARDBP, Homo sapiens, UniProt Q13148, residues 1-414)
CUCACU: 0.559
CCAAAC: 0.619
CCUACU: 0.592
CCUGCG: 0.897
UCUAGC: 0.606
CAGCCC: 0.669
CGCGUG: 1.45
UGUAAA: 0.695
CAGGAG: 1.7
GGAUAC: 0.921
UGAAUA: 0.688
AUCCAU: 0.571
CUGGCC: 0.806
UCGAAG: 0.852
GUUCAU: 0.595
AAACGC: 0.609
CAACUG: 0.686

Block 4 — method: RNA Bind-n-Seq; molecule type: RNA; sample: in vitro; tested at: 365 nM; relative to: no-protein control; reading: higher = stronger binding; quantity: RBNS enrichment (R)
Target: RNA binding protein fox-1 homolog 2, RRM domain, GST-SBP tag (RBFOX2, Homo sapiens, UniProt O43251-10, residues 100-194)
Setting: natural RNA segment, single round, ends assumed
Constant ends, left off below: GGGAGUUCUACAGUCCGACGAUC … UGGAAUUCUCGGGUGCCAA
Construct (chain): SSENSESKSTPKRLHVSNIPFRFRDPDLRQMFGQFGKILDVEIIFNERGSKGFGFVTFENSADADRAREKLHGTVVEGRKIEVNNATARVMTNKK
GCAAGCGUGUGGAUUUCCAUUGCAGAGCCCCUGUUUCAGGAUGCAAGAGUUUUCCAGCCCAAGGCAAAAUGGAAGAUUGCUGACCCAACCACAAACCCAUCCCUGCGGAG: 0.39
AACUGAAACCACUUAGAAGAAAAGAAGAAACCUAAAUGUCUGUGGAAGUGAUCAGUAUUAAGUGGGUGAUGGCUCUUUCAUCUUCCUUAUCCCUAAAGAUACUUCCAACA: 0.441
AUUUUUCCCAGAGGCUAUCUUGAUUCUUUGGAAUGUUUAAAGUGUGCCUUGCCAGAGAGCUUACGAUCUAUAUCUGCUGCUUCAGAGCCUUCCCUGAGGAUGGCUCUGUU: 0.255
AGGCUGAAUGGGAGAGUCCUCCACAACUCCCUGUGUGCCUCAUGGAAAAUAAAGUUUUUUGCACCAUGCUGGUUCUGGACAUUCAGAGCUGUCUCCUGAGUCCUGAGCAG: 0.418
AGGCUAUCCCUGUCGCACGUUGGAUCCUGGAUAAGCUAGUCCCUUCGUUUGCGUUGAGAAUUGGCAUGCAGUGUGUGUGAGCCGAGGGCCUCCUCAGUGUUCCACAAGCU: 3.6
UGUCUAUAAGCUCAUCACAGCCUAGAGUUAAGUAAAGUCAAUUCACAGAAGCACAAUUUUGCCCUUUGCGAGACAUUGUUGCCUCUAUCUAGUCCUACAAGUAGGGUUUU: 0.251
UUUACCAUCUUGGCUUUAGUAGGUAUAGAAGAAAGUGGAUUACCAUCUUUAUUUUGUAAUGUGUUAAAUAAGCAUUAUAUGCUGGUAGAAUCUAGUUUAAUUGUUUCAGG: 0.549
CCUCACAAUGUUGGGAUUACAGGUAUAAGCCACUGCACACGGCCUUACUAUGCUAUCAAUUCCAUAUAUGGAAAGGUGUUUUCCCUUUCAGAGCUCUUUAAAGCUCUGCA: 0.599
CUAAGCCCCCACUACCCCAGAGCUAUCUUCUGUAGCCCAAAGGCAAGGCAGUGACCUCCUACUGACUUCCAACACAAUCCAGGGACAUUCUUCUCAACCCUUCAAACUUC: 0.322
GGGCUUGGUUGAGGGAACGGCUUCUGGCUGUAUGGCUGCAUGUGACAAGCCACGUCCCCUCCCACCUCUCCCCAAACCCCUGCAUCCCUGUAUUCACACGGGUCACUCUG: 8.48
CACCAAGAGGGACGCCUGGGGGUGCCAGGACCAGUCAACCUGGGCAAAGCCUAGUGAAGGCUUCUCUCUGUGGGAUGGGAUGGUGGAGGGCCACAUGGGAGGCUCACCCC: 0.377
AGGAGGGCCGACGGGUGCCUCGGUCGCUCUGGGGGCAGUUUAGAUGCUGUGAAAUUAAACCCGUUCUAAGUGUACUUGUUUGAAUUAACUGUAUUGUAAUAUUAUUUGUU: 0.858

Block 5 — method: RNA Bind-n-Seq; molecule type: RNA; sample: in vitro; tested at: not given; relative to: input RNA pool; reading: higher = stronger binding; quantity: bound/input enrichment
Target: RING finger protein unkempt homolog, zinc fingers 1-6, GST-SBP tag (UNK, Homo sapiens, UniProt Q9C0B0, residues 30-357)
Setting: RNA with constant flanks, human-mouse chimeric sites, ends assumed
Constant ends, left off below: GGGAGUUCUACAGUCCGACGAUC … CAACAGAGGAUUGAGCAUCA
Construct (chain): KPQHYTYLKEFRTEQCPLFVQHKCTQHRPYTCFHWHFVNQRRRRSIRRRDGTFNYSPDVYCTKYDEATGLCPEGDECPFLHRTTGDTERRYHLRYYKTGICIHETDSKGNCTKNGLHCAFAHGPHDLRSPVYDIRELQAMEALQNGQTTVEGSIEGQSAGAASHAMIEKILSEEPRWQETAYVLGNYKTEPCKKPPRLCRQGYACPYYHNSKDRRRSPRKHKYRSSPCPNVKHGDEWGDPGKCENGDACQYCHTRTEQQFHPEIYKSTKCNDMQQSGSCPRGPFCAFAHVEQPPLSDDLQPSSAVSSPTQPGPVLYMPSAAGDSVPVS
ACACAAUAUGAGACCAACAGCAUGGACUUCAAAGUUGGGGCAGAUGGGACAGUCUUCGCCACCCGGGAGCUGCAGGUCCCCUCAGAGCAGGUGGCGUUUACCGUCACUGCAUGGGACAGC: 0.142 ratio
GUGCCCUUCUCGCUGCUGCGGAGCCCGAGCUGGGAACCAUUCCGGGACUGGUACCCUCCGCAUAGCCGCCUCUUCGAUCAAGCUUUCGGGGUGCCCCGGUUGCCCGAUGAGUGGUCGCAG: 0.057 ratio
CUGUGUGUGCUGAAUAAAUGGCUUGUAAAGAAGUUUUUCCAAGCUGUAACCCAUGCUUCCCUUAGAGUUGCUGCAAAAUGUUCUUCCUGAUAUUGAUGUUUGUUUACAACUGAAGGUCUC: 0.159 ratio
GCUCCUCCCCGCUCUGCAGCCUGGGGACACUGGGCUGGGACCAGAAUCCAGCUUUCUUUUAAUAGUGUCAGUGUAACUGUAUCCCGUGACAUUUCAUUUUUUUUAAAUAGUGUAUUUUUU: 8.05 ratio
CUGGCACUCUAUCAGAUAUAUUAAUUUUUAAAUGUAGAUGUAAUUUUAAAAAUGAAUGGCUACUUUACACGUUUAACUAGGGUUUUACUAUAUAUGUGUACAUAUGUAUAUGUAUUUAUA: 11.3 ratio
GGGGAGAAACCUUACGAAUGCGUUCAGUGUGGGAAAUCCUACAGUCAGAGCUCAAACCUCUUCAGACAUCAGAGAAGACACAAUGCAGAAAAACUUUUGAAUGUUGUGAAGGUUUAAGAA: 0.195 ratio
ACAGUUAUAUUGUUGAGUUUCAUUUUCAUAUAUUCUUGUAGUGUCUGCUUGCCUGUGACUUCUGGUAAAAUAAAAUAUUAAAAUUACAAUAUUUUAGAUUUAACAUUAACAUUUUCUAAA: 3.31 ratio
AUUCCGAUUAUGGACACCGGUGAAAACCCAGAGGUUCCCUUCCCCCGGGACAUGAUCGACUUAGAGGCCAAUUUUGAGAAGAUUGAAAAUGAACUGAAGGAAAUCAACACUAACCAGGAA: 0.129 ratio
CUGUGACCACAAGAUCCUACCUGAGUGUUCAGAUGGGUUGACUCCCUCUCCUUGCCUGAACCCCCCCCCACUGCCCCUUGAGUCCACAGUGUCGGCUGAGAUGUUGCCUCUGCACGGUUC: 0.492 ratio
UUUGUAUUUAUGCUAAGCACACGUGCUGGUGGUCUGGGCAUCAAUCUUGCAACUGCUGAUGUAGUCAUUUUGUAUGACUCAGAUUGGAAUCCGCAAGUAGAUCUUCAGGCUAUGGACCGU: 0.124 ratio
GUCAACAGCUGCCUCAAUCCCAUUCUCUACGCCUUCCUGGAUGAGAACUUCAAGGCCUGCUUCCGCAAGUUCUGCUGUGCAUCUGCCCUGCGCCGGGAGAUGCAGGUGUCUGACCGCGUG: 0.376 ratio
